Assay results from different studies.
Each numbered part is a random draw from the data of one study; scales do not carry over between parts. Several values in a cell are separate wells, animals, samples, runs or records.
UniProt Q13523, sequence (whole entry, looked up): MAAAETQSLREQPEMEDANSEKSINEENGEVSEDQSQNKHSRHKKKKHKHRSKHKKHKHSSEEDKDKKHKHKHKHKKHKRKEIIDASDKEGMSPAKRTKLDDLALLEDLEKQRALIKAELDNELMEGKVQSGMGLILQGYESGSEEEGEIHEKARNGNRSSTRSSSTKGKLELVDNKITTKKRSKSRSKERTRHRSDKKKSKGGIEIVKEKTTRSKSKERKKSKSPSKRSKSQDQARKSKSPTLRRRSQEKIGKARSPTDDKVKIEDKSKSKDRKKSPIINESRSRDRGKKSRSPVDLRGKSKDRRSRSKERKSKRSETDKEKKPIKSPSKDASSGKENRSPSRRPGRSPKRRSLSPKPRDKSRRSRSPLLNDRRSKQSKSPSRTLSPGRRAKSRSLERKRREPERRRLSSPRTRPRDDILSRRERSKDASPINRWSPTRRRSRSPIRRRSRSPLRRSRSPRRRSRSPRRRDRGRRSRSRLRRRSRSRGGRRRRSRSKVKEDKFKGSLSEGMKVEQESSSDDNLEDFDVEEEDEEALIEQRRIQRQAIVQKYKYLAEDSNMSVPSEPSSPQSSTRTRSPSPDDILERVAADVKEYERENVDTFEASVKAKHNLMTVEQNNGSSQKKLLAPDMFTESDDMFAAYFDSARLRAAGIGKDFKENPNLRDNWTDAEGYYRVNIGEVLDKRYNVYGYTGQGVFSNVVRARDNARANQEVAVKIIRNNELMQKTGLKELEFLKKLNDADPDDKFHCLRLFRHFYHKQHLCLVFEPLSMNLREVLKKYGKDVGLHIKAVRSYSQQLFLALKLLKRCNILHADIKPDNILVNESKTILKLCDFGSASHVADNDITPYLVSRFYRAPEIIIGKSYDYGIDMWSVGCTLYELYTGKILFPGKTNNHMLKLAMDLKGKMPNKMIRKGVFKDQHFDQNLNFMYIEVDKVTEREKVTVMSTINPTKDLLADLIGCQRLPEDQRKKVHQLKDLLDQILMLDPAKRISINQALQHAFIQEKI
UniProt P27361, sequence (whole entry, looked up): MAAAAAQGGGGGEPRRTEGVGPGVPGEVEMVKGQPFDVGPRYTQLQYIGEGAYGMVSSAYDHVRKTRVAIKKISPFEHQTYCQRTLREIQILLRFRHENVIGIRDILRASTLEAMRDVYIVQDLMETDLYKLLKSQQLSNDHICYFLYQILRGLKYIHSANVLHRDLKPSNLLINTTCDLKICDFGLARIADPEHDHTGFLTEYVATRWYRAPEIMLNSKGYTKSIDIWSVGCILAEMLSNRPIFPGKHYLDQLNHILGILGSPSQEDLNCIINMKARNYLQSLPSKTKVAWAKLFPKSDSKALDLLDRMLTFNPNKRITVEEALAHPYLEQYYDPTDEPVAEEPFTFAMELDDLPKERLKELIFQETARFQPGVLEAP
UniProt Q9UHD2, sequence (whole entry, looked up): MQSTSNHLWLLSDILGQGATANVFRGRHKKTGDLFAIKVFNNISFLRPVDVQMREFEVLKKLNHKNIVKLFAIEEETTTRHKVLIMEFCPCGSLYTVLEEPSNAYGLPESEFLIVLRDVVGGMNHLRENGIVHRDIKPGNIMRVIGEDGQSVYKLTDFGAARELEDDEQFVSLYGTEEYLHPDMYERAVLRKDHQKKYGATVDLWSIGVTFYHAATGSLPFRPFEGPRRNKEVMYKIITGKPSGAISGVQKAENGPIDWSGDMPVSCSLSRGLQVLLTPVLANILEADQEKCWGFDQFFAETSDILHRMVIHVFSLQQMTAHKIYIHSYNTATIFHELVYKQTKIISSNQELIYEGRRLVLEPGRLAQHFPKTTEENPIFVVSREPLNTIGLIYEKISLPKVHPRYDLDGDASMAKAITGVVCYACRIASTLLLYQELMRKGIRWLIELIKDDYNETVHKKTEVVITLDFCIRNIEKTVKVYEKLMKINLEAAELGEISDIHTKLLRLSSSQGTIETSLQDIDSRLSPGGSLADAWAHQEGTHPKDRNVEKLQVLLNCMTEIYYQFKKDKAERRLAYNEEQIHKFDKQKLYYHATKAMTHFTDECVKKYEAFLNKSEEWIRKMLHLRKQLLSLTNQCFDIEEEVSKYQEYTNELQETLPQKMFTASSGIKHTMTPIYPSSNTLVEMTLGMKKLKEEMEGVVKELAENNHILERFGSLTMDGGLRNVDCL
UniProt P42685, sequence (whole entry, looked up): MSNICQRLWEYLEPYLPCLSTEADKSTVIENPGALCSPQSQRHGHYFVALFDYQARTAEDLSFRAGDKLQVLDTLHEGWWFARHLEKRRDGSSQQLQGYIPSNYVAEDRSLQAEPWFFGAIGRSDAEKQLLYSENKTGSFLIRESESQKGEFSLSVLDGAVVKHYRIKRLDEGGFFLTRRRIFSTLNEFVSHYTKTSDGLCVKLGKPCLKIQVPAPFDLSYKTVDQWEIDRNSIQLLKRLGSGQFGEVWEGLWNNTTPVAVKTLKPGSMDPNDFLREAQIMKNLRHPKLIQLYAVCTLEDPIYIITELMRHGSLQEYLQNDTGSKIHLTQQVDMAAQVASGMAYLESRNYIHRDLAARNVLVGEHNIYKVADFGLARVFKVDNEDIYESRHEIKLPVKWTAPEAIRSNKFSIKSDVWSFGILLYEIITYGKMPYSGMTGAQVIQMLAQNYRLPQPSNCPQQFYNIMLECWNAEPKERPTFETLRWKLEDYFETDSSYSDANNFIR
UniProt O94768, sequence (whole entry, looked up): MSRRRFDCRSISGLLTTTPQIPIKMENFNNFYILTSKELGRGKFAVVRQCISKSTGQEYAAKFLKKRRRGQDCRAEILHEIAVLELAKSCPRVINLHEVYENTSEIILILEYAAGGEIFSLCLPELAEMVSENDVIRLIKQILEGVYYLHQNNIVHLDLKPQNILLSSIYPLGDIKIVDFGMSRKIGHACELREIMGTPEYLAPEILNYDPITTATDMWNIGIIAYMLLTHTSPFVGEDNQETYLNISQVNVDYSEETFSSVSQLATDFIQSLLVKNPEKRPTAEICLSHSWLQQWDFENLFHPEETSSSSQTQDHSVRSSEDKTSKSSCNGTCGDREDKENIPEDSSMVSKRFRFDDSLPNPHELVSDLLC
UniProt O00222, sequence (whole entry, looked up): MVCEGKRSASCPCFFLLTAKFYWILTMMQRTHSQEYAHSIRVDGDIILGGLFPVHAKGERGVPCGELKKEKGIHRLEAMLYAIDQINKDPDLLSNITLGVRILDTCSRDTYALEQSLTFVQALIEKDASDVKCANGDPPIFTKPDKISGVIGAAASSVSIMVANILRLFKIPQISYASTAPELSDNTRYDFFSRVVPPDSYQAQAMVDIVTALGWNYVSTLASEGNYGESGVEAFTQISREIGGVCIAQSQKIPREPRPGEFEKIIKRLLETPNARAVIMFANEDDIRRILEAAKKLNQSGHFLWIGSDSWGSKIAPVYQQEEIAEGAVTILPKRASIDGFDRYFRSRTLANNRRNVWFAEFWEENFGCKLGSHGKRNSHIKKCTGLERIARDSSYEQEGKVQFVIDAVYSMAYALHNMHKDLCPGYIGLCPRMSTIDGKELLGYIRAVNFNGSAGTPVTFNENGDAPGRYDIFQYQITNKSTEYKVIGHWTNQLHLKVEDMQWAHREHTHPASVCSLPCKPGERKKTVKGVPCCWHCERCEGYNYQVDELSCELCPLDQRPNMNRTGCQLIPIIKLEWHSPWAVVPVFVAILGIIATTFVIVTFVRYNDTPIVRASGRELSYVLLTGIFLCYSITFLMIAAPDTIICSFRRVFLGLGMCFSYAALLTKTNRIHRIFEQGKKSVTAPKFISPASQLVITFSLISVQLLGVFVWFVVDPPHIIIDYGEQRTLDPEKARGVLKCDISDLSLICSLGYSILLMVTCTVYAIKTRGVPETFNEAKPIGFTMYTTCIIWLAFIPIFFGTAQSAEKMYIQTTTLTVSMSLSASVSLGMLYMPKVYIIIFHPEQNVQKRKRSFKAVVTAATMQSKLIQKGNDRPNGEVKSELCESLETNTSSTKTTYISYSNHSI
UniProt P30291, sequence (whole entry, looked up): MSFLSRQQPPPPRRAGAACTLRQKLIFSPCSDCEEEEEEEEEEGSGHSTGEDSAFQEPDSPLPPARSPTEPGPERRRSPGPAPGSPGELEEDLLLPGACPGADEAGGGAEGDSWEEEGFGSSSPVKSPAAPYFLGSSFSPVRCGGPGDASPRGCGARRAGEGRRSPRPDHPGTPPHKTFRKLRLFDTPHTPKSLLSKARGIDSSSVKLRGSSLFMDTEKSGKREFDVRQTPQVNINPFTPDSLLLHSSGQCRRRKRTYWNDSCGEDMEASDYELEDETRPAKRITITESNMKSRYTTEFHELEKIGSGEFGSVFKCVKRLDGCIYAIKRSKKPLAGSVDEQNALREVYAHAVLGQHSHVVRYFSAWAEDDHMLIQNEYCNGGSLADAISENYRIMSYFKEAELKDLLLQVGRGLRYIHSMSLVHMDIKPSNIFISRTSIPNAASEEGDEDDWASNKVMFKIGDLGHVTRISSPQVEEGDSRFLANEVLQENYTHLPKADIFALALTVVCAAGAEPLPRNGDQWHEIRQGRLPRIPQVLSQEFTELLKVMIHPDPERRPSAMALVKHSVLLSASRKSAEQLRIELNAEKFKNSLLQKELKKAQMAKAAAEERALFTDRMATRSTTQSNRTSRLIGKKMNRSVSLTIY
UniProt P07550, sequence (whole entry, looked up): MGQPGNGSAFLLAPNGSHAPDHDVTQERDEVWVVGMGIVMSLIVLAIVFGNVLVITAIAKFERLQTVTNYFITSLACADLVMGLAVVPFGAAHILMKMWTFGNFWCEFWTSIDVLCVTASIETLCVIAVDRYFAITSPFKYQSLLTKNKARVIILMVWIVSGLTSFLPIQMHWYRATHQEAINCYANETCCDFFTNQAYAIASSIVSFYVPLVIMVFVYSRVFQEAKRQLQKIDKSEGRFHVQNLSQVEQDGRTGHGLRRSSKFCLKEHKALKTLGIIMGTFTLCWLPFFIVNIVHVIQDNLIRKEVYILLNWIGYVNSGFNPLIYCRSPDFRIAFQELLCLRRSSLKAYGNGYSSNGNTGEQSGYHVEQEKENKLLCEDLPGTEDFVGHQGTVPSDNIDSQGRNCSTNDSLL

Set 1
SMILES: NC(N)=NC(=O)c1nc(Cl)c(N2CCCCCC2)nc1N
Observed: β-arrestin recruitment
Mode: agonist
Technique: PRESTO-Tango
Concentration: 10 µM
Reference: untreated
The “fold over basal” was 1.01 (ADRB2 (Homo sapiens, UniProt P07550)).
For HTR1D (Homo sapiens, UniProt P28221): “fold over basal” read 0.91.
PTGDR (Homo sapiens, UniProt Q13258) — “fold over basal”: 1.59.
It gave 0.82 fold for “fold over basal” (GRM8 (Homo sapiens, UniProt O00222)).

Set 2
Structure (SMILES): NS(=O)(=O)c1cc(NC(=O)Cc2ccccc2)ccc1Oc1cccc(Cl)c1
Observed: cell-free assay
Technique: competition with immobilised ligand
Concentration: 1 µM
The remaining binding was 84% (PIK3CB (Homo sapiens, UniProt P42338)).
For STK17B (Homo sapiens, UniProt O94768): remaining binding read 100%.
It gave 97% for remaining binding (PRPF4B (Homo sapiens, UniProt Q13523)).
EPHB3 (Homo sapiens, UniProt P54753) — remaining binding: 94%.
PIP5K1A (Homo sapiens, UniProt Q99755) — remaining binding: 100%.
PAK5 (Homo sapiens, UniProt Q9P286) — remaining binding: 63%.

Set 3
SMILES: Cc1ccc(NC(=O)c2ccc(CN3CCN(C)CC3)cc2)cc1Nc1nccc(-c2cccnc2)n1
Observed: enzyme activity
Mode: inhibitor
Concentration: 0.5 µM
Reference: control
For MERTK (Homo sapiens, UniProt Q12866): remaining activity read 91%.
NEK6 (Homo sapiens, UniProt Q9HC98) — remaining activity: 97.9%.
For WEE1 (Homo sapiens, UniProt P30291): remaining activity read 101%.
It gave 96.7% for remaining activity (TBK1 (Homo sapiens, UniProt Q9UHD2)).
GRK7 (Homo sapiens, UniProt Q8WTQ7) — remaining activity: 99.6%.
MAPK3 (Homo sapiens, UniProt P27361) — remaining activity: 102%.
EPHA3 (Homo sapiens, UniProt P29320) — remaining activity: 99.5%.
FRK (Homo sapiens, UniProt P42685) — remaining activity: 93.8%.
It gave 84.7% for remaining activity (MST1R (Homo sapiens, UniProt Q04912)).
It gave 96.6% for remaining activity (MAP2K2 (Homo sapiens, UniProt P36507)).
The remaining activity was 103% (FGFR1 (Homo sapiens, UniProt P11362)).
The remaining activity was 108% (ULK3 (Homo sapiens, UniProt Q6PHR2)).
For JAK3 (Homo sapiens, UniProt P52333): remaining activity read 98%.

Set 4
Compound: CC(C)C[C@H]1NC(=O)[C@H](N(C)C(=O)[C@@H](CC2CCC2)NC(=O)[C@H]2C[C@H](F)CN2C(=O)C2(C(F)(F)F)CC(F)(F)C2)CCCCNC(=O)C2(CC2)NC(=O)[C@@H](Cc2cc(Cl)ccc2Cl)N(C)C1=O
Technique: Vi-Cell counting
Time: 6 days
Reference: DMSO
For HCC4006; 600 nM: cell count read 0.937 and 0.975 and 1.
For A549; 200 nM: cell count read 0.98 and 0.895 and 0.982.
The cell count was 0.83 and 0.927 and 0.935 (NCI-H446; 2 µM).
A549; 20 nM — cell count: 0.932 and 0.915 and 0.855.

Excerpt of the above (set 3):
MAPK3 (Homo sapiens, UniProt P27361) — remaining activity: 102%.
EPHA3 (Homo sapiens, UniProt P29320) — remaining activity: 99.5%.
